# Measured values collected from several papers.
# Numbered parts are unrelated; each lists some results of a single study. Substitutions count along the parent as printed.

# Sample 1
# Target: Sal-like protein 4, full length isoform B (SALL4, Homo sapiens, UniProt Q9UJQ4-2, residues 1-616)
# Method: universal PBM
# Form: double-stranded DNA, one strand shown
# Sample: in vitro
# Concentration: not given
# Notes: 8-mer, flanks averaged, mean of replicates
# Reading: higher = stronger binding
# Residues (chain): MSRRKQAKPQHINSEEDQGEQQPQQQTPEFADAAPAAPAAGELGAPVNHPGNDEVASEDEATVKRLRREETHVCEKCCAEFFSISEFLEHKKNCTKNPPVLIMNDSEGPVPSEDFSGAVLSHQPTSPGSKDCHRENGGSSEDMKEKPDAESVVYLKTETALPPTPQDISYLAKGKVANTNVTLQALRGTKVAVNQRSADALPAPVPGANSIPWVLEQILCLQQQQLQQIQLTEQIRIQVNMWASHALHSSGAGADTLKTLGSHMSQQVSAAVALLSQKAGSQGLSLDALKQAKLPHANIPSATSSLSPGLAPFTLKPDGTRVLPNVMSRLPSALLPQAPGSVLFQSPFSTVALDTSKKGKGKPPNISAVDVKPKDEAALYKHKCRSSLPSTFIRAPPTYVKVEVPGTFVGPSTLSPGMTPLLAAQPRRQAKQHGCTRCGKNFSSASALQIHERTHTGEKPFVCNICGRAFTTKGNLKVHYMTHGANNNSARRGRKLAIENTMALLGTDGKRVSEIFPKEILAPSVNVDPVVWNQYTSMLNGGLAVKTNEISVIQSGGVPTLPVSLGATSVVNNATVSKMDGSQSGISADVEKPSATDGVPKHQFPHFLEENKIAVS
Sequence,E-score
CCCTCAAA,-0.093
GTTTAATA,0.394
ATGGGCCC,-0.348
GAGTAGCC,-0.268
GGCCTAAC,-0.15
AAGAAGAC,0.0653
AGCCCTTA,0.0605
AACAAGGT,0.0777
AGCTGGGG,-0.183
GATGTCAA,0.0699
CCGAAACC,-0.277
ATTATAGG,0.309

# Sample 2
# Target: CCNA1, cyclin fold, Cln2 fusion (human)
# Method: yeast growth competition, sequencing
# Sample: yeast
# Notes: weak parent motif
# Relative to: not given
# Reading: higher = stronger binding
# Starting sequence: SCAPER docking peptide (human); SNARRSLNFGGST; partner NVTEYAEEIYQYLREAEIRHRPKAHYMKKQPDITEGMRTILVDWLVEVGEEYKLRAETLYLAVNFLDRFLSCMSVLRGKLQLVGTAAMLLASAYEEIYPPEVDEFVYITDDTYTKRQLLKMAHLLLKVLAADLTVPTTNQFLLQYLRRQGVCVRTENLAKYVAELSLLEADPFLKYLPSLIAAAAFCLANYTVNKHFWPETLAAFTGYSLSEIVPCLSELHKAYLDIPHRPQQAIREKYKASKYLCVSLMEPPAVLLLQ
Substitution,normalised enrichment score
SNARGSLNFGGST [R5G],0.121
SNAMRSLNFGGST [R4M],0.0285
SNFRRSLNFGGST [A3F],0.312
DNARRSLNFGGST [S1D],0.437
SNARRSLNFWGST [G10W],0.423
SNARRSLNFGPST [G11P],0.624

# Sample 3
# Target: RNA binding protein fox-1 homolog 2, RRM domain, GST-SBP tag (RBFOX2, Homo sapiens, UniProt O43251-10, residues 100-194)
# Method: RNA Bind-n-Seq
# Form: RNA
# Sample: in vitro
# Concentration: 365 nM
# Notes: natural RNA segment, single round, ends assumed
# Relative to: no-protein control
# Reading: higher = stronger binding
# Constant ends, left off below: GGGAGUUCUACAGUCCGACGAUC … UGGAAUUCUCGGGUGCCAA
# Residues (chain): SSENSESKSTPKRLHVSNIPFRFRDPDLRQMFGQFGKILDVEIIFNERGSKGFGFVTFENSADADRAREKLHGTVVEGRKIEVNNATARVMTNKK
Sequence,RBNS enrichment (R)
CCAACUUCUAACCACAAUAGUGACUCUGUGCUUGUCUGUUUAGUUCUGUGUGUAAAUGAAAUGUGGAAAUGACCCUCCCUGCCCCAGCUGGCUGCCCUCCCCUUUCCUUU,0.881
GCUACUCUCGACGUAACAUAUAUACAUAUGUGUGUGUGUGUGUGUGUGUGUGUGUGCUAUCCAAAUAUAUUUGUAUAUAUUUGUAUAGCAUUUUUACACUUUAGGAGUAA,0.357
UUUCCUGAUCGAGAAACACGUGCUAAGAUUUCUAUGAAUUCUGCUUCUUUAUAGUUAAGUCUCUGUUUUCCAUGUUCUGUCAUUUAUAUAGGUCAAGGACAAGUGCCUUC,0.844
CGCUUUUUGUUGUUGUUGGUUUUCUUAACCCCUUUAAUGGAACUGCCUGGAUUUUAUACAGUUAUUAAAGGAUGUCUCUUUUGCUUUAAACUGCAUGCUGCCAAGUGCCA,2.22
UGCUAUCCAUCAGAACGUCUAUUCCAGCCUUGCCAGCUUAAGAACUUAGAGAAAUUAAGAGGUAUCUUUGAUGUAUCUACCAGUAUUCAAUAGUAACAUUUACCUGUCCA,0.375
CAGGGCACAGUUAGGCCUGGAUGUUUGCCUGGUCCGUGAGAUGCCGCGGGUCCUGUUUCCUUACUGGGGAUUUCAGGGCUGGGGGUUCAGGGAGCAUUUCCUUUUCCUGG,0.409
AACGGUUAUGAUUGCCAGCGUUUUGGAUGGCAUUAAACUGGAGUUCAGGGUUGAACAUGUCCUGCUCCUCAUCCCAUAAGUACCUUGGACUUUCAGGAGCCUCAGGAUCA,0.18
ACCUGGUGAUGCAAUCUUUUUUUUUUUUAAUUUAAUUUAAUUUUAAAAUAAAUGCUGCAUUGGUAAAGCUGGCAGUUGAAACCAGUUGGACGGCCCAGCUUGCGUCUCUU,0.553

# Single results of other studies
Substance,target,assay,test system,setting,scale,endpoint,value
"PhoQ, residues 284 288 289 292 302 303 QWQEDG","PhoP, residues 12 14 15 18 19 TPLRH (Escherichia coli, UniProt P23836)","Sort-seq, measured: YFP reporter",E. coli,"PhoQ-PhoP variant library, with: 10 µM Mg2+","relative to: high Mg2+ state, higher = stronger signaling",fold induction,0.757
